Published values collected from several papers.
Numbered parts are unrelated; each lists some results of a single study. Positions count from the first letter of the parent shown.

Set 1 — method: universal PBM; molecule type: double-stranded DNA, one strand shown; medium: in vitro; tested at: 600 nM; reading: higher = stronger binding
Target: Sal-like protein 4, full length isoform A (SALL4, Homo sapiens, UniProt Q9UJQ4, residues 1-1053)
Chain of UniProt Q9UJQ4 (whole entry, looked up): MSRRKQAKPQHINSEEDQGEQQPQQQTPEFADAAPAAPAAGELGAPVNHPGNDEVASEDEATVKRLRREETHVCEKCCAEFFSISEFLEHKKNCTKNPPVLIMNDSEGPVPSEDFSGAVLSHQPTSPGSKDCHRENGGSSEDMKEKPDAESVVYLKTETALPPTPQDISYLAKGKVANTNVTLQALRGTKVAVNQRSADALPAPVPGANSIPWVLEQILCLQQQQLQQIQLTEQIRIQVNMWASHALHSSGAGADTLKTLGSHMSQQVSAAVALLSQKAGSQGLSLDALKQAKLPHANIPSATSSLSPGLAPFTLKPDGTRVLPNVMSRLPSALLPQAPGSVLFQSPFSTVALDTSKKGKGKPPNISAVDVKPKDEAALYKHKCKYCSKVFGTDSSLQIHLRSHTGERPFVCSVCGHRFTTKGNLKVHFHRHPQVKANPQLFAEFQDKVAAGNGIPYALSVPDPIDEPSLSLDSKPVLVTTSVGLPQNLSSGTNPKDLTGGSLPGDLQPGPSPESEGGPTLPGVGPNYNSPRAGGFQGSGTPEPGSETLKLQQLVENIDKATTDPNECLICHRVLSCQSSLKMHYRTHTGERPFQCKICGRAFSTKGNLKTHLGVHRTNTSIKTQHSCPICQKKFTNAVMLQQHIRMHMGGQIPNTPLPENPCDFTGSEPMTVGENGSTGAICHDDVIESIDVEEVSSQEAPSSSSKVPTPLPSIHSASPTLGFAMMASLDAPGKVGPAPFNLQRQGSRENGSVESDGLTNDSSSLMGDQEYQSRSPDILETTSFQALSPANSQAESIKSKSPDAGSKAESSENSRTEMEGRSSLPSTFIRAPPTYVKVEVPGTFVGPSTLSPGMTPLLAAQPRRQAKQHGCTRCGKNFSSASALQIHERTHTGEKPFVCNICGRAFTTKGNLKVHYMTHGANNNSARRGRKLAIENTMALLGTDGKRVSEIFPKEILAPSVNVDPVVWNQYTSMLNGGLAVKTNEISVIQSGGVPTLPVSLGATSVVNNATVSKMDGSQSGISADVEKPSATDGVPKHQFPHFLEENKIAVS
Notes: 8-mer, flanks averaged, mean of replicates
`ACGAACTA` has an E-score of 0.0949.
The E-score of `CTGACGAA` is reported as -0.00571.
With `ACGAAACG` the E-score was 0.022.
`ACCACCAA` has an E-score of -0.0835.
`ATCAGGAT` gave an E-score of 0.112.
With `CCAGAGTC` the E-score was -0.169.
The E-score of `GACGAGTC` is reported as -0.188.
`GGGAGAAA` gave an E-score of 0.00302.
`GCTTTAAA` gave an E-score of 0.105.
For `ATACTCAG`, the E-score was 0.142.
The E-score of `AAGTCGGA` is reported as -0.076.
`AGGAGGAC` has an E-score of -0.215.
`AGGATGGA` gave an E-score of -0.0503.
`AGCTCCAA` gave an E-score of 0.014.
`ATACGTCC` has an E-score of -0.055.
`AAGTTATC` has an E-score of 0.15.
`CACCACGC` gave an E-score of -0.24.
`ATCGGGGA` gave an E-score of -0.0013.
With `ATAGGCGG` the E-score was 0.0653.
`CCGTTTCA` has an E-score of -0.00656.
With `ATCTAAAA` the E-score was 0.19.
The E-score of `CCACTCAA` is reported as 0.149.
With `ATGTGCTG` the E-score was 0.0646.

Set 2 — method: RNA Bind-n-Seq; molecule type: RNA; medium: in vitro; tested at: 365 nM; baseline: no-protein control; reading: higher = stronger binding
Target: RNA binding protein fox-1 homolog 2, RRM domain, GST-SBP tag (RBFOX2, Homo sapiens, UniProt O43251-10, residues 100-194)
Notes: natural RNA segment, single round, ends assumed
Residues (chain): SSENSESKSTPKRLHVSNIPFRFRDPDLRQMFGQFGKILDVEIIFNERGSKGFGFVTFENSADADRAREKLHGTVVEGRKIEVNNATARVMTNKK
For `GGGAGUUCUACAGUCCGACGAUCACUGCCUUUUGCCAGCAUUCUAAAUUUGGAGUUUUACUGAGAAGGAAACUGUUUUUAUAGUUUUAAUCAGAGCUAUGCAUUUCAUACAGCUUUUUAAUUUACAAUGAAACUGGAAUUCUCGGGUGCCAA`, “RBNS enrichment (R)” read 0.866.
`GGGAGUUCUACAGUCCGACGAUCGAAGCCCUCUGAGAAAGCAGGGCAAAUAGGGUGUAAGGGGCUUGGUUUUUCUGUUAGCUUGGACCACUGCCUCAUCAGACAAUAUCAGCAGAUGUGCCUCAGUUUCCCCAUGGAAUUCUCGGGUGCCAA`: “RBNS enrichment (R)” 0.431.
`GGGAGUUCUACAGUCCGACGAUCGUAGAACCAGUGAGGAGAUGCGGCCAAAGAUUCUUUAUAUCUGAACCAAGAUGUAAAACAAGAAAUGCUUUGAGGCUUUCUAAGCGAUCCUCCUGUCUAAUUUGCACCUUUGGAAUUCUCGGGUGCCAA`: “RBNS enrichment (R)” 0.277.
`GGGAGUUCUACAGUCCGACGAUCGUUCUGGCUGUUUUCUGUCUGGUGGAGAAGCCUGCUUGUCAAAGCUGACCUCUUAGAGCCGCACAGAUGUGCUAGCCACCAAAAACCUCCUGUAACCAUGCAAGCCUGUAUGGAAUUCUCGGGUGCCAA` — result for “RBNS enrichment (R)”: 0.248.
`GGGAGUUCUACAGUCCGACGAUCUGAAAGCUGCUGAACUCGGCAUGGCGCCUCCUCUUCUCUGUUGGGAUGAGUGACUUUAUUGAUUUGAGCAGCAUAUGCUGUGAUUGGCUGCCCUGCAAAUUUGUUUCCCUUGGAAUUCUCGGGUGCCAA` — result for “RBNS enrichment (R)”: 0.544.
`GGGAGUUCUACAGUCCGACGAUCUGGCCUAUGGCGAGAAAGGCUAUGGGACAGUGAUCCCCCCACAGGCCUCGCUGGUCUUUCACGUCCUCCUGAUUGACGUGCACAACCCGAAGGACGCUGUCCAGCUAGAGUGGAAUUCUCGGGUGCCAA`: “RBNS enrichment (R)” 0.221.
For `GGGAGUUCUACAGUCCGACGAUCACUUAGUGACAUUAUGUGUGACAGAAUUAAAUGACCGGGAAGAAAACGAAAACCACUUUCCAGUAAUAUAUGGCAUUGCUGUCAACAUUAAGACUGCAGAGAUUUACAGAUGGAAUUCUCGGGUGCCAA`, “RBNS enrichment (R)” read 0.302.
For `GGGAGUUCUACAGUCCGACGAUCAUAUUUUGUAACUUCCAUGUGAGGGUUUUCAGCAUUGAUAUUUGUGCAUUUUCUAAACAGAGAUGAGGUGGUAUCUUCACGUAGAACAUUGGUAUUCGCUUGAGAAAAAAUGGAAUUCUCGGGUGCCAA`, “RBNS enrichment (R)” read 4.7.
For `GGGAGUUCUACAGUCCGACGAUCUUUGGUUAUGUUGCUGAUGUAAAUUUGUGUAAAUGGUUUCUACCCUGGAGAGUGUGUGUACCGUGUGCACUUGACUAAGGUCACAACAGAACGUUGUGUUGUAUUCUCCCUGGAAUUCUCGGGUGCCAA`, “RBNS enrichment (R)” read 0.653.
For `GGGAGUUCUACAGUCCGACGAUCAUGGCGCUAGGGCUCUCAGCCUCCUAGAAGGAAGGGACUAAGGAGACGGGCACAGACUUGCGUCAUCUCGUUUCCACAGUUGACGUUUUAUAUUACUUUCUCAAAUUAAGUGGAAUUCUCGGGUGCCAA`, “RBNS enrichment (R)” read 0.566.
`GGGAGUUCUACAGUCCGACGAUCAUACCCCACUGCUGCCCGACACUGCCCUUUAGCUGCAGAGCUGGAUUAGCUGUUGACCAUUUGAUGCUGUUGUCUGUCUGGCAGGGACUGAAUGACCUGAUGUCAGAUUUUGGAAUUCUCGGGUGCCAA` — result for “RBNS enrichment (R)”: 0.416.
`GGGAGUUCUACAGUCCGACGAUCAGGUCUGGGUUUCGUUUUUACCCAGACCCUGGCACUCCCUGUCCACUGUGUGUGUGAUCAUGCUGGGAGGGGUAACUGCUUGGAAUUAAAAGGUUGCACUGGGUCCCUAAUGGAAUUCUCGGGUGCCAA`: “RBNS enrichment (R)” 0.452.

Set 3 — method: RNAcompete; molecule type: RNA; medium: in vitro; tested at: 20 nM; notes: 7-mer, probes averaged, single round; baseline: mean of 7-mers; reading: higher = stronger binding
Target: PABPC1L2, full length, GST fusion (mouse, UniProt A0ABA7IW68)
Target sequence (chain): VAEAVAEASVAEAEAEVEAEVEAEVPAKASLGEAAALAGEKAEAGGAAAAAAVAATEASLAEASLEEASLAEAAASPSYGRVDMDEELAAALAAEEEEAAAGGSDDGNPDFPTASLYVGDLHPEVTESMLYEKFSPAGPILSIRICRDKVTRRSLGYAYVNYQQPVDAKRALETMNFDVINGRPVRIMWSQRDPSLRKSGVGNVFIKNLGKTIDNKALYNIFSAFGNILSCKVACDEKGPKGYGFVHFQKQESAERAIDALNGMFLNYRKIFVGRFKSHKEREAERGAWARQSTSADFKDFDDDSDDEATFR
`CUCGCUA` has a 7-mer Z-score of -0.376.
The 7-mer Z-score of `CGCAACA` is reported as 0.00979.
For `GUGGGAA`, the 7-mer Z-score was 0.334.
With `GUGAAAC` the 7-mer Z-score was -0.0101.
`AAUAUCU` gave a 7-mer Z-score of 0.066.
With `CUCACCU` the 7-mer Z-score was -0.436.
`AACCUCU` has a 7-mer Z-score of -0.19.
For `GGGUCCG`, the 7-mer Z-score was 0.115.
For `UGGUCAC`, the 7-mer Z-score was -0.101.
The 7-mer Z-score of `GCUCGUU` is reported as -0.485.
`GCAUCUG` gave a 7-mer Z-score of -0.0174.
With `UUUUAAU` the 7-mer Z-score was -0.113.
For `ACCUACG`, the 7-mer Z-score was -0.155.
`GCCGUAU` has a 7-mer Z-score of -0.376.
With `AGGGCCA` the 7-mer Z-score was 0.305.
With `ACUGGAU` the 7-mer Z-score was -0.05.
For `GGCACGG`, the 7-mer Z-score was 0.225.
`UAGACGA` has a 7-mer Z-score of 0.0587.
`CUCGGGG` gave a 7-mer Z-score of -0.0953.
The 7-mer Z-score of `CCGAGCC` is reported as -0.286.
`GCCUAAA` gave a 7-mer Z-score of 0.418.
`UGUCUGU` has a 7-mer Z-score of -0.345.

Set 4 — target: CCNE2, cyclin fold, Cln2 fusion (human); method: yeast growth competition, sequencing; medium: yeast; notes: strong parent motif; baseline: not given; reading: higher = stronger binding
Starting sequence: PLK5 docking peptide (human); IFRKVGQRLLTQC
`L9A` — result for “normalised enrichment score”: 0.477.
Under “normalised enrichment score”, `V5A` is recorded as 0.417.
Under “normalised enrichment score”, `I1A` is recorded as 1.02.
`Q7A`: “normalised enrichment score” 1.17.
`R3A` — result for “normalised enrichment score”: 1.15.
`F2A` — result for “normalised enrichment score”: 0.992.

Set 5 — method: DHFR PCA, deep sequencing; medium: yeast; added: (+)-ABA 0.0091 µM; baseline: wild-type fitted maximum; reading: higher = stronger binding
Target: ABI1, truncated, D143A, DHFR fusion (Arabidopsis thaliana)
Notes: methotrexate growth selection, single substitutions
Starting sequence: PYL1, truncated, DHFR fusion (Arabidopsis thaliana); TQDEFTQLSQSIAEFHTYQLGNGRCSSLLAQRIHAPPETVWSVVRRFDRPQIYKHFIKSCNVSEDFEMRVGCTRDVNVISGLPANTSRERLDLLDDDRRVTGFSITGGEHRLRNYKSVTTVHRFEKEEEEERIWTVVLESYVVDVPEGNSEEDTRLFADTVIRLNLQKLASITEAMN
For `W41V`, “relative binding score” read -0.249%.
Under “relative binding score”, `E67D` is recorded as 29.6%.
`D95W` — result for “relative binding score”: -6.2%.
Under “relative binding score”, `D65K` is recorded as 13.8%.
`E131N`: “relative binding score” 58.4%.
Under “relative binding score”, `Q19Y` is recorded as 3.9%.
For `R155C`, “relative binding score” read 2.43%.
`V137L`: “relative binding score” 0.303%.
Under “relative binding score”, `F15L` is recorded as 1.64%.
`P50N` — result for “relative binding score”: -3.69%.
`N149C`: “relative binding score” 60.2%.
Under “relative binding score”, `E14Y` is recorded as 0.0916%.
`V43H`: “relative binding score” 1.43%.
`T173F` — result for “relative binding score”: -1.68%.
`T119G`: “relative binding score” -5.43%.
`T119Y`: “relative binding score” -9.05%.
`R24G`: “relative binding score” 0.716%.
For `T173K`, “relative binding score” read -8.58%.
`V76H`: “relative binding score” -5.11%.
For `S11E`, “relative binding score” read 44.3%.
Under “relative binding score”, `I105Q` is recorded as 0.937%.

Excerpt of the above (set 3):
`CUCGCUA` has a 7-mer Z-score of -0.376.
For `UGGUCAC`, the 7-mer Z-score was -0.101.
With `ACUGGAU` the 7-mer Z-score was -0.05.
With `AGGGCCA` the 7-mer Z-score was 0.305.
`UGUCUGU` has a 7-mer Z-score of -0.345.
For `ACCUACG`, the 7-mer Z-score was -0.155.
For `GGGUCCG`, the 7-mer Z-score was 0.115.
With `GUGAAAC` the 7-mer Z-score was -0.0101.
`CUCGGGG` gave a 7-mer Z-score of -0.0953.
